{"data": "Measured values from different studies", "note": "Parts stem from different laboratories: compare values within a part only."}
{"data": "Study 1", "target": "Ras GTPase-activating protein-binding protein 1, C-terminal RGG region (G3BP1, Homo sapiens, UniProt Q13283)", "technique": "RNA Bind-n-Seq", "molecule type": "RNA", "matrix": "in vitro", "concentration": "1 µM", "setting": "whole 134-nt RNA, ends assumed", "together with": "150 mM KCl", "baseline": "input library", "direction": "higher = stronger binding", "all sequences stand within": "GGGAGUUCUACAGUCCGACGAUC … UGGAAUUCUCGGGUGUCAAGG", "sequence of UniProt Q13283 (whole entry, looked up)": "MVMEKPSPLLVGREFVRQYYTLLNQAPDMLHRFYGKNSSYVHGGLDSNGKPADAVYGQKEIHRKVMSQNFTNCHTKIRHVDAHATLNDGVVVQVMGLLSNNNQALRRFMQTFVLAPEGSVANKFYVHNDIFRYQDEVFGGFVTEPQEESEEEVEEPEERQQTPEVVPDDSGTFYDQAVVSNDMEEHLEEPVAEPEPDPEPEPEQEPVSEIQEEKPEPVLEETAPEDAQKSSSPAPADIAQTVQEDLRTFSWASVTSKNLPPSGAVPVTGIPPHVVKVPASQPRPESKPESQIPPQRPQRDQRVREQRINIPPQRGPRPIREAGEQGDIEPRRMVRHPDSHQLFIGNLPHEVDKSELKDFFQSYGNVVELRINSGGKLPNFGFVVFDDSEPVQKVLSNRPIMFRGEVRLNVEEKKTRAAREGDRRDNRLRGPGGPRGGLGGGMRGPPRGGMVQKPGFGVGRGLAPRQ"}
{"Sequence": "CACAGACAACACGCACCCACACAGACACAGAGGGAAGGGGUUGGGAUGGGGACAGGGUGCACAGCAGGGCGGGGUAGGACCCCAGCCCCC", "log2 enrichment": -1.06}
{"Sequence": "ACCAUGCAGGUGGGCAUCUUUGGGAAGUGGGGCAAGGGGGGGAUAGGGAGGGGGGUAACACUUUGGGAACAGGUGGUCCCAGGUCGUAAA", "log2 enrichment": -1.04}
{"Sequence": "GCAGGAAGUAAAAACAAAUGGAAAUGCUUCGGAUAGAGGCAGGGGUGGGGGUUGCUAAGGAAAGGGUGGGAUGGGAGUGGGUAAAGAGUU", "log2 enrichment": 1.81}
{"Sequence": "GUCCUGUGCUACACAUCGUAUGUACCGAAUCGGGGUUUUGGGGUUUUGGGGUUUUGGGGAAAGUAUUAUGUUACGCCGUUCGGAUCUGCA", "log2 enrichment": 2.13}
{"Sequence": "ACCAUGCAGGUGGGCAUCUUUGGGAAGUGGGGCAAGGGGGGGAUAGGGAGGGGGGUAACACUUUGGGAACAGGUGGACCCAGGUCGUUUC", "log2 enrichment": 1.29}
{"Sequence": "CCUCAAGUCCUGUGCUACACAUCGUAUGUACCGAAUCGGGGCGGCGGGCGGGGAAAGUAUUAUGUUACGCCGUUCGGAUCUGCACUUCCA", "log2 enrichment": 0.489}
{"Sequence": "GUCCUGUGCUACACAUCGUAUGUACCGAAUCGGAAAAAGGGGAAAAAGGGAAAAAGGGGAAAGUAUUAUGUUACGCCGUUCGGAUCUGCA", "log2 enrichment": -0.742}
{"Sequence": "CCUGUGCUACACAUCGUAUGUACCGAAUCGGGAAAAAAAGGGAAAAAAAGGGUUUUUGGGAAAGUAUUAUGUUACGCCGUUCGGAUCUGC", "log2 enrichment": -1.72}
{"Sequence": "CAAGUCCUGUGCUACACAUCGUAUGUACCGAAUCGGGAGGGUUUUUUUGGGAGGGAAAGUAUUAUGUUACGCCGUUCGGAUCUGCACUUC", "log2 enrichment": 0.595}
{"Sequence": "CACAGACAACACGCACCCACACAGACACAGAGGGAAGGGGUUGGGAUGGGGACAGGGUGCAUAGCAGGGCGGGGUAGGACCCCAGCCCCU", "log2 enrichment": 0.0217}
{"data": "Study 2", "target": "RING finger protein unkempt homolog, zinc fingers 1-6, GST-SBP tag (UNK, Homo sapiens, UniProt Q9C0B0, residues 30-357)", "technique": "RNA Bind-n-Seq", "molecule type": "RNA", "matrix": "in vitro", "concentration": "not given", "setting": "RNA with constant flanks, human and mouse sites, ends assumed", "baseline": "input RNA pool", "direction": "higher = stronger binding", "all sequences stand within": "GGGAGUUCUACAGUCCGACGAUC … CAACAGAGGAUUGAGCAUCA", "sequence of UniProt Q9C0B0 (30-357, looked up)": "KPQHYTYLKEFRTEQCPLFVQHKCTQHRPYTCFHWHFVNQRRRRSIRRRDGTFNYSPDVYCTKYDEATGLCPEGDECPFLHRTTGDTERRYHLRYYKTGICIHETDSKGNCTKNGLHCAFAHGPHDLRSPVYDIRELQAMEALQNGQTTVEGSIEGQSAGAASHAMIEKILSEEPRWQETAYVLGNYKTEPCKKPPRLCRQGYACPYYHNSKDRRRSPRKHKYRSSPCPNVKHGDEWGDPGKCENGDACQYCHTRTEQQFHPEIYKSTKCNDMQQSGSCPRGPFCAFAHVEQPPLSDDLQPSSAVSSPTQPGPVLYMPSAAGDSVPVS"}
{"Sequence": "AACAGUAGUACAGCUAUUGGGAUCAGAUGUAAAGAUGGUGUUGUGUUUGGGGUAGAAAAACUAGUCCUUUCUAAACUUUAUGAAGAAGGCUCCAAUAAACGUCUUUUUAAUGUUGAUCGA", "bound/input enrichment": "0.458 ratio"}
{"Sequence": "AACGUGGCAUUCAUGAGCUAUUUUUUACAGGGCAAGCUUGAUGCUUGCCUAGAGCUCUUGAUCAGAACAGGAAGACUCCCAGAAGCUGCCUUCCUGGCCCGAACUUACUUACCCAGUCAG", "bound/input enrichment": "0.135 ratio"}
{"Sequence": "GAUGCUUCCGACUUUGAGCACAUUACAGCAGAGACACCCUCAAGGCCCCUGUCCUCCACCAGUAACCCCUUUAAGAGUUCAAAGUGUUCUACUGCUGGGAGUUCCCCAAACAGCGUAAGU", "bound/input enrichment": "0.417 ratio"}
{"Sequence": "AAUUCUCUGAAAAUCCCAUUAGGAAACCAGGUGUGAAAAGGGCUCAGUAGCUUCUCUGAGUGGCGUUUUUAGCUGACUGGAAGUGCUUAAUCUGGAUCGUCUUUUUUUUUUUUUUUUUUU", "bound/input enrichment": "3.19 ratio"}
{"Sequence": "CUUAGUAGAUAAUUUGGGUGGUACUGAAGCACCUAUUAUCUCUUAUUUCUGUUCUCUAGGCUGUUAUGUUAAUUCCUCUGAUAUGUUAAAGUAAUGGGUGAGACCAGAAAAAGAAAUUUC", "bound/input enrichment": "0.428 ratio"}
{"Sequence": "UCAAAUAAUCAUCAGUGCAAAUUCUGUAGUAGACAUUUUUGUUAUAAAAAGUCUUUAGAGAAUCAUUUGGCUAAAACCCAUAGGUCCCUUUUAUUAGGGAAAAAACAUGGGUUAAAAAUG", "bound/input enrichment": "0.66 ratio"}
{"Sequence": "UUCAGUCCUAGCUUUUGUGUGGCCAUAAAAAUAGAUUUACUUAAAGUGCACUGUCUGGUCAUCUGACUUGCAACCUUCAAUCAGCACUAAAAUUAAAACAUGGAACAAAAUUUGUGCUGA", "bound/input enrichment": "0.903 ratio"}
{"Sequence": "UUCUGGCACUGUGUUUAUUAUCUAUGAUUAAAUAAAGUGAGUUUUUGGUUUUGUUUUUUUAAUUUCAGCCAUUCCUAGAGUUACUGAAUAUCCAUGGAGAUCUCAAUUCUCUGUGUCCAA", "bound/input enrichment": "1.02 ratio"}
{"Sequence": "ACGCCAGUGUCCUAUGACCAGGGGGCAAAUAUGGCCAAACAGAUUGGAGCAGCUACUUAUAUCGAAUGCUCAGCUUUACAGUCGGAAAAUAGCGUCAGAGACAUUUUUCACGUUGCCACC", "bound/input enrichment": "0.142 ratio"}
{"Sequence": "CAGAACUGUGGUCCAAGUUUCCAGUCUCUGAUUGUGAAGAAGGAAUUUGUUAAAGAGAAUUUAGUUAAGCUACUGAAUCCCAGAUACAACUUGCCAUUAGACAUUCAGAAUAGAAUCUUG", "bound/input enrichment": "0.617 ratio"}
{"Sequence": "UUUGAUGUAAGAAUUGAACGGGACGCACAAGAGAUGGCUGAUAGUUUGGGAGUUAGAAUCUUUAGUGCAGAAAUUAUUUAUCACUUAUUUGAUGCCUUUACAAAAUACAGACAGGACUAC", "bound/input enrichment": "3.78 ratio"}
{"data": "Study 3", "target": "Sal-like protein 4, full length isoform A (SALL4, Homo sapiens, UniProt Q9UJQ4, residues 1-1053)", "technique": "universal PBM", "molecule type": "double-stranded DNA, one strand shown", "matrix": "in vitro", "concentration": "600 nM", "setting": "8-mer, flanks averaged, mean of replicates", "direction": "higher = stronger binding", "sequence of UniProt Q9UJQ4 (whole entry, looked up)": "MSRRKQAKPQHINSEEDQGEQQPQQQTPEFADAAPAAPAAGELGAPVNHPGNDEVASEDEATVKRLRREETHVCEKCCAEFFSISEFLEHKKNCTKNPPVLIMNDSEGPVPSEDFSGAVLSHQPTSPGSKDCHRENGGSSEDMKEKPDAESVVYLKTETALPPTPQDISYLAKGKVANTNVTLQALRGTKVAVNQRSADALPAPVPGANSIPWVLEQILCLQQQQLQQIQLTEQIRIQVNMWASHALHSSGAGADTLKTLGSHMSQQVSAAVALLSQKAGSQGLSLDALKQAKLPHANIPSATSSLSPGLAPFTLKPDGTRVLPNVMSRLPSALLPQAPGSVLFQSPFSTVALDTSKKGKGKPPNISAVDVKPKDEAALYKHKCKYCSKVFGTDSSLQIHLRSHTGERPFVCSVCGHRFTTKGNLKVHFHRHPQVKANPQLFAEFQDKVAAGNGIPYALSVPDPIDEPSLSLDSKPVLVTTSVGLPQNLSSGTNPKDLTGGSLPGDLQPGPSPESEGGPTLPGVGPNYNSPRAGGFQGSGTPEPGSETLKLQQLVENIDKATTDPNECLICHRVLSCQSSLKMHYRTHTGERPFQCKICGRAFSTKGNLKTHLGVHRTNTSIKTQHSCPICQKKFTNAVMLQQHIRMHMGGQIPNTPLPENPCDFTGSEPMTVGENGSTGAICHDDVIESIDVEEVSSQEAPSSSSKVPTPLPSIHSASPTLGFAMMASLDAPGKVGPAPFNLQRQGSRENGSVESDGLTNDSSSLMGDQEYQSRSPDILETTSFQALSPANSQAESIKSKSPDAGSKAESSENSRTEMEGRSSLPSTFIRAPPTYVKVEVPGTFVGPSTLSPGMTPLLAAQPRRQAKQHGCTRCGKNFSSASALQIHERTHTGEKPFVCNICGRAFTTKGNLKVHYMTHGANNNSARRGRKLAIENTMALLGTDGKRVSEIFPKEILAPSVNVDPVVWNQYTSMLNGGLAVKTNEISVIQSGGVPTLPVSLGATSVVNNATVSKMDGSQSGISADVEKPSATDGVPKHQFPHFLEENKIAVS"}
{"Sequence": "ATGACAAG", "E-score": 0.0666}
{"Sequence": "AGCATTTA", "E-score": 0.0864}
{"Sequence": "GAGCTTCC", "E-score": -0.218}
{"Sequence": "AACATAAA", "E-score": 0.325}
{"Sequence": "CAAAAATC", "E-score": 0.271}
{"Sequence": "ACTCAACT", "E-score": 0.0512}
{"Sequence": "ACGACTTC", "E-score": 0.0676}
{"Sequence": "CAGGGAGG", "E-score": -0.294}
{"Sequence": "AAAGGCTC", "E-score": -0.0329}
{"Sequence": "GACGAACA", "E-score": -0.0319}
{"Sequence": "CGACTCCA", "E-score": -0.198}
{"Sequence": "GCTAGGAA", "E-score": -0.103}
{"Sequence": "ACCCTCAG", "E-score": -0.0659}
{"Sequence": "CAAGGGAG", "E-score": -0.166}
{"Sequence": "CCGAAACG", "E-score": -0.192}
{"Sequence": "AAACTGAG", "E-score": -0.084}
{"Sequence": "AAGGGCAA", "E-score": -0.124}
{"Sequence": "CGTTGCTA", "E-score": -0.0294}
{"Sequence": "CGTGGCCA", "E-score": -0.238}
{"Sequence": "CAAACTGG", "E-score": -0.259}
{"Sequence": "ATGCTCTC", "E-score": -0.0404}
{"Sequence": "CGTTCGCA", "E-score": 0.00975}
{"Sequence": "AGCTAAAG", "E-score": 0.121}
{"Sequence": "AGTAGCTC", "E-score": -0.115}
{"Sequence": "CATCCAGA", "E-score": -0.0813}
{"data": "Study 4", "target": "Histone acetyltransferase KAT6A, winged helix 2, GST fusion (KAT6A, Homo sapiens, UniProt Q92794, residues 85-181)", "technique": "protein binding microarray", "molecule type": "double-stranded DNA, one strand shown", "matrix": "in vitro", "concentration": "not given", "setting": "8-mer, flanks averaged, mean of 2 arrays, mostly near background", "baseline": "not given", "direction": "higher = stronger binding", "Construct (chain)": "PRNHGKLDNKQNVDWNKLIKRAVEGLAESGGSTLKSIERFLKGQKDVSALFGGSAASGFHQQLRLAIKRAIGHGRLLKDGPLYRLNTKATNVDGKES"}
{"Sequence": "AATGTCCT", "E-score": -0.284}
{"Sequence": "AGTGAACT", "E-score": -0.0143}
{"Sequence": "GGTTAGTA", "E-score": -0.00418}
{"Sequence": "ATAAACGG", "E-score": 0.0248}
{"Sequence": "CAAGAACC", "E-score": 0.115}
{"Sequence": "CTGTTCCC", "E-score": -0.0535}
{"Sequence": "CTTTCGTA", "E-score": -0.206}
{"Sequence": "CGTCATGC", "E-score": 0.0606}
{"Sequence": "ACCCTGTC", "E-score": 0.000385}
{"Sequence": "ATGCACAT", "E-score": -0.00381}
{"Sequence": "ACCGACTG", "E-score": 0.0794}
{"Sequence": "CTCGTGCC", "E-score": -0.0129}
{"Sequence": "CAATTGCC", "E-score": -0.117}
{"Sequence": "ACCCCTTA", "E-score": -0.0551}
{"Sequence": "TACTCGGA", "E-score": 0.123}
{"Sequence": "CTGTAAAC", "E-score": -0.173}
{"Sequence": "GATTATCA", "E-score": "6e-05"}
{"Sequence": "AGGGTAGC", "E-score": -0.00609}
{"Sequence": "TAACCGTA", "E-score": -0.178}
{"Sequence": "AGGTCTGG", "E-score": -0.112}
{"Sequence": "CCGCCCGC", "E-score": 0.275}
{"Sequence": "CCCGTCGA", "E-score": 0.117}
{"Sequence": "GAGGAATA", "E-score": 0.121}
{"Sequence": "AGACCTGC", "E-score": -0.117}
{"Sequence": "CATGCCCC", "E-score": -0.109}
{"note": "A few entries again (study 3):"}
{"Sequence": "CGTGGCCA", "E-score": -0.238}
{"Sequence": "AGCATTTA", "E-score": 0.0864}
{"Sequence": "ATGACAAG", "E-score": 0.0666}
{"Sequence": "ACCCTCAG", "E-score": -0.0659}
{"Sequence": "GAGCTTCC", "E-score": -0.218}
{"Sequence": "ACTCAACT", "E-score": 0.0512}
{"Sequence": "AAAGGCTC", "E-score": -0.0329}
{"Sequence": "CAAGGGAG", "E-score": -0.166}
{"Sequence": "CAAAAATC", "E-score": 0.271}
{"Sequence": "CAAACTGG", "E-score": -0.259}
